# Measurements pooled from the literature.
# Lines come from different studies, so protocols differ. “And” joins repeats or separate records; there may be more than shown.
# Cell line: MDA-MB-435
Compound,test,system,conditions,scale,measurement,result
C#C[C@@]1(O)[C@@H](CO)O[C@@H](n2cc(I)c3c(N)ncnc32)[C@@H]1O,SRB,,NCI-60 screen,,TGI,14 µM and 11.7 µM
NNc1nc(-c2ccc(Cl)cc2)c2c(NC(=O)c3ccccc3)nnc-2[nH]1,SRB,,"10 µM, NCI60 single-dose screen",relative to: untreated,cell growth,103%
CCCCN1CCN(c2ccc3[nH]c(-c4ccc5[nH]c(-c6cc(OC)c(OC)c(OC)c6)nc5c4)nc3c2)CC1,SRB,,"10 µM, 48 h",,growth percent,53.5%
CCN(CC)c1ccc(C=NNC(=O)CSc2nc3ccccc3c(=O)n2Cc2ccc(S(N)(=O)=O)cc2)c(O)c1,NCI five-dose screen,,,,TGI,> 100 µM
C#C[C@@]1(O)[C@@H](CO)O[C@@H](n2cc(F)c3c(N)ncnc32)[C@@H]1O,SRB,,NCI-60 screen,,TGI,3.26 µM
CCCCN1CCN(c2ccc3[nH]c(-c4ccc5[nH]c(-c6ccc(OCC)c(OCC)c6)nc5c4)nc3c2)CC1,SRB,,"10 µM, 48 h",,growth percent,-41.2%
Cc1cc(=O)[nH]n1-c1nc(-c2ccc(Cl)cc2)c2c(NC(=O)c3ccccc3)nnc-2[nH]1,SRB,,"10 µM, NCI60 single-dose screen",relative to: untreated,cell growth,99%
S=C([S][Au-][P+](CCCCCC[P+]([Au-][S]C(=S)n1cccn1)(c1ccccc1)c1ccccc1)(c1ccccc1)c1ccccc1)n1cccn1,"cell growth, NCI-60 screen",,breast cancer,,log10 TGI,> -4
O=C(Nc1nnc2n3c(nc(-c4ccc(Cl)cc4)c1-2)SCC3=O)c1ccccc1,SRB,,"10 µM, NCI60 single-dose screen",relative to: untreated,cell growth,101%
Cc1cc(C)n(C(=S)[S][Au][PH](CCCCCC[PH]([Au][S]C(=S)n2nc(C)cc2C)(c2ccccc2)c2ccccc2)(c2ccccc2)c2ccccc2)n1,"cell growth, NCI-60 screen",,breast cancer,,log10 TGI,> -4
COc1ccc(OC)c(-c2nc3ccc(-c4nc5ccc(N6CCN(C)CC6)cc5[nH]4)cc3[nH]2)c1,SRB,,"10 µM, 48 h",,growth percent,99%
Cc1n[nH]c2nc(-c3ccc(Cl)cc3)c3c(NC(=O)c4ccccc4)nnc-3n12,SRB,,"10 µM, NCI60 single-dose screen",relative to: untreated,cell growth,104%
Cn1cncc1C1=CN(c2ncnc3[nH]cnc23)CCS1,,,melanoma cell line,,TGI,> 200 µM
CCCN1CCN(c2ccc3[nH]c(-c4ccc5[nH]c(-c6ccc(OCC)c(OCC)c6)nc5c4)nc3c2)CC1,SRB,,"10 µM, 48 h",,growth percent,-88.2%
Cc1cc(C)n(-c2nc(-c3ccc(Cl)cc3)c3c(NC(=O)c4ccccc4)nnc-3[nH]2)n1,SRB,,"10 µM, NCI60 single-dose screen",relative to: untreated,cell growth,60%
CCCCN1CCN(c2ccc3nc(-c4ccc5nc(-c6cc(OC)ccc6OC)[nH]c5c4)[nH]c3c2)CC1,SRB,,"10 µM, 48 h",,growth percent,101%
CC(=O)O[C@H]1C(=O)[C@@]2(C)[C@H]([C@H](OC(=O)c3ccccc3)[C@]3(O)C[C@H](OC(=O)[C@H](O)[C@@H](NC(=O)c4ccccc4)c4ccccc4)C(C)=C1C3(C)C)[C@]1(OC(C)=O)CO[C@@H]1C[C@@H]2O,sulforhodamine B,Melanoma cancer,NCI60 screen,,TGI,0.02 µM
O=C(Nc1nnc2[nH]c(=S)[nH]c(-c3ccc(Cl)cc3)c1-2)c1ccccc1,SRB,,"10 µM, NCI60 single-dose screen",relative to: untreated,cell growth,100%
CN1CCN(c2ccc3[nH]c(-c4ccc5[nH]c(-c6ccc(C(F)(F)F)cc6)nc5c4)nc3c2)CC1,SRB,,"10 µM, 48 h",,growth percent,49.8%

# Repeated from above:
Compound,test,system,conditions,scale,measurement,result
CCCCN1CCN(c2ccc3[nH]c(-c4ccc5[nH]c(-c6cc(OC)c(OC)c(OC)c6)nc5c4)nc3c2)CC1,SRB,,"10 µM, 48 h",,growth percent,53.5%
